Measurements collected from several papers.
Compare with care: the assays were run in different laboratories. ± gives the spread as reported.

SMILES	assay	test system	conditions	how to read	endpoint	value
O=C1NCCc2nc(OCc3cccc(F)c3)ccc21	measured: tail erection	Sprague-Dawley rat male	oral, 100 mg/kg, 30 min	direction not given	Irwin test score	0
CN(C(=O)n1cnc(-c2cccnc2)c1)C1CCCCC1		Wistar rat, cerebellum	oral, 10 mg/kg/day of BIA 10-2474, 4 h, repeated 5 days		concentration	30.1 ± 5.6 ng/g
CCCC1CCC(C2CCC(c3cc(F)c(F)c(F)c3)CC2)CC1 (stereo not shown)		rat, fetus	5000 ng/mL in perfusate, high dose, mixture of 21 LCMs		fetal accumulation	3.98 ± 1.78 ng/g
CNC(=O)c1ccc(-c2cnc3ncc(Cc4ccc5ncccc5c4)n3n2)cc1F	measured: Anemia	other cancer patients	oral, 600 mg twice daily, expansion cohort, grade 3-4		patients with adverse event	6%
O=C([O-])CCCCCCCNC(=O)c1ccccc1O.[Na+]		healthy postmenopausal women	300 mg, oral contraceptive alone, geometric mean		AUC(0-24h)	1480 ng·h/mL
Cc1ccc(Sc2ccccc2N2CCNCC2)c(C)c1	measured: Nausea	healthy adult men	oral, 10 mg single dose		participants with TEAE	0%
CCOCc1nc(O)c(-c2nnc(Cc3ccc(Cl)cn3)o2)c(O)c1-c1c(OC)cccc1OC		rat, anaesthetised, cannulated, plasma	intravenous infusion, 10 µg/kg/min, 5 min		plasma concentration	850 nM
CCC(C)n1ncn(-c2ccc(N3CCN(c4ccc(OCC5COC(Cn6cncn6)(c6ccc(Cl)cc6Cl)O5)cc4)CC3)cc2)c1=O (stereo not shown)		healthy human volunteers	oral, 200 mg, event Headache, continued dosing		adverse events	0%
COc1cc(N2CCC3(CCN(C)CC3)CC2)ccc1Nc1ncc(Cl)c(Nc2ccccc2P(C)(C)=O)n1	population PK model	human	oral, base structural model		Ka	1.06 h⁻¹
CCN1CCN(Cc2ccc(Nc3ncc(F)c(-c4cc(F)c5nc6n(c5c4)[C@H](C)CCC6)n3)nc2)CC1		human, plasma	400 mg multiple dosing, mean		CL/F	52.7 L/h
CCc1ccc(-c2ccc(-c3cc(F)c(F)c(F)c3)c(F)c2)cc1		rat, fetus	5000 ng/mL in perfusate, high dose, mixture of 21 LCMs		fetal accumulation	0.651 ± 0.602 ng/g
CC(=O)N[C@@H](CC(N)=O)C(=O)N[C@@H](CC(N)=O)C(=O)N[C@@H](CC(C)C)C(=O)N[C@H]1CSSC[C@@H](C(=O)N[C@H](C(N)=O)[C@@H](C)O)NC(=O)[C@H](CCCNC(=N)N)NC(=O)[C@H](Cc2c[nH]cn2)NC(=O)[C@H](Cc2cccc3ccccc23)NC(=O)CNC(=O)[C@H](Cc2c[nH]c3ccccc23)NC(=O)[C@H](CC(=O)O)NC(=O)[C@H](CCC(N)=O)NC(=O)[C@H](Cc2c[nH]c3ccccc23)NC(=O)[C@H](C(C)C)NC1=O	isocratic RP-HPLC, C18	32% acetonitrile, phosphate pH 7.4, 1% TFA	25 °C		retention factor	2.089 ± 0.006
Cc1cc(C)c(CNC(=O)c2cc(Cl)c3c(c2C)O[C@@](C)([C@H]2CC[C@H](N(C)C)CC2)O3)c(=O)[nH]1		human relapsed/refractory NHL	oral, 200 mg once daily, onset day 1 to 14		disease progression grade ≥3	4.2%
CO[C@@H]1[C@H](O)[C@@H](CO)O[C@H]1n1c([N+](=O)[O-])nc2c(=O)[nH]c(N)nc21	depurination, RP-HPLC	citrate-phosphate buffer 0.5 mM	355 min, pH 2, 37 °C		nucleoside remaining fraction	0.663
CC[C@H](C)[C@H](NC(=O)[C@H](CCCNC(=N)N)NC(=O)[C@H](CCC(=O)O)NC(C)=O)C(=O)N[C@H]1CSSC[C@@H](C(=O)N[C@H](C(N)=O)[C@@H](C)O)NC(=O)[C@H](CCCNC(=N)N)NC(=O)[C@H](Cc2c[nH]cn2)NC(=O)[C@H](C)NC(=O)CNC(=O)[C@H](Cc2c[nH]c3ccccc23)NC(=O)[C@H](CC(=O)O)NC(=O)[C@H](CCC(N)=O)NC(=O)[C@H](Cc2c[nH]c3ccccc23)NC(=O)[C@H](C(C)C)NC1=O	isocratic RP-HPLC, C18	32% acetonitrile, phosphate pH 7.4, 1% TFA	25 °C		retention factor	0.317 ± 0.02
N#Cc1ccc2c(c1)[C@H]1CCCN(C(=O)c3ccc4[nH]cnc4c3)[C@H]1C2		human, male	360 mg, day 15		androstenedione level	9.6 nmol/L
Cc1cc(-c2nnc(N)nc2-c2ccc(F)cc2)cc(Cl)n1		human patients, plasma	oral, 75 mg nanosuspension, single dose, arithmetic mean		terminal half-life	16 h
CCOc1c([C@H](C)n2nc(C)c3c(N)ncnc32)cc(Cl)c(F)c1[C@@H]1CNC(=O)C1	measured: ΔQTcF ≤ 30 ms	previously treated B-cell malignancy	oral, 30 mg once daily, baseline QTcF ≤450 ms		share of patients	100%
C=CCN1CC(=O)N2[C@@H](Cc3ccc(O)cc3F)C(=O)N(Cc3cccc(N4CC(N5CCN(CC)CC5)C4)n3)C[C@@H]2N1C(=O)NCc1ccccc1		advanced solid tumour patients	oral, 80 mg twice daily, grade ≥3, dose-escalation		treatment-related ALT increased	0%
Cc1cc(Nc2ccc(S(F)(F)(F)(F)F)cc2)n2nc(C(C)(F)F)nc2n1		Plasmodium vivax malaria patients	oral, 800 mg		adverse event Pyrexia	57.1%
COc1cccc(OC)c1-c1cc(C(=O)NC2(C(=O)O)C3CC4CC(C3)CC2C4)nn1-c1ccc(C(=O)N(C)CCCN(C)CCCN(C)C(=O)CN2CCN(CC(=O)[O-])CCN(CC(=O)[O-])CCN(CC(=O)[O-])CC2)cc1C(C)C.[177Lu+3] (stereo not shown)		mouse, HT-29 xenograft, liver	4 h post injection		tissue uptake	2.7 %ID/g
CC1=C(/C=C/C(C)=C/C=C/C(C)=C\C(=O)O)C(C)(C)CCC1		FaSSIF	literature solubility over dose		dose-adjusted solubility	0.000638 mL⁻¹
Cc1cc(Nc2ncnc3ccc(NC4=NC(C)(CO)CO4)cc23)ccc1Oc1ccn2ncnc2c1 (stereo not shown)		human, plasma	oral, 300 mg tucatinib single dose, day 1, tucatinib alone		AUC(0-inf) (arithmetic mean)	485 ng·h/mL
Cc1nc(-c2ccc(OCC(C)C)c(C#N)c2)sc1C(=O)O		healthy Chinese subjects, fasted	oral, 40 mg single dose		subjects with abdominal pain	2.6%
COc1ccc2c(c1)CN(C(=O)CCN1CCC(Cc3ccccc3)CC1)CC[S@@+]2[O-]	telemetry	conscious male beagle dogs	intravenous, 2 mg/kg, 1 h		systolic blood pressure	132 ± 11 mmHg

SMILES	assay	test system	conditions	how to read	endpoint	value
CO[C@H]1C[C@@H]2CC[C@@H](C)[C@@](O)(O2)C(=O)C(=O)N2CCCC[C@H]2C(=O)O[C@H]([C@H](C)C[C@@H]2CC[C@@H](OC(=O)NCCOCCOCCOCCOCCOCCOCCOCCOCCC(=O)N3CCc4cc(Cn5nc(-c6ccc7oc(N)nc7c6)c6c(N)ncnc65)ccc4C3)[C@H](OC)C2)C[C@@H](O)[C@H](C)/C=C(\C)[C@@H](O)[C@@H](OC)C(=O)[C@H](C)C[C@H](C)/C=C/C=C/C=C/1C		human patients, plasma	intravenous, 16 mg, cycle 1 day 15, weekly dosing		AUClast	1820 ng·h/mL
COc1ccnc(C(=O)NC(CO)C(=O)O)c1O (racemic)		laying hens, eggs	oral, 10.7 mg/kg dry feed, 7 d		share of total radioactive residue	14 % TRR
CC(C)(C(=O)N1CCOc2c(C#N)cncc2C1)C(F)F	measured: Psychiatric disorders	human	oral, 10 mg once daily, 14 days, multiple ascending dose		subjects with adverse event	0%
CCO[C@H]1CCN(Cc2c(OC)cc(C)c3[nH]ccc23)[C@H](c2ccc(C(=O)O)cc2)C1		human mild hepatic impairment, plasma	oral, 200 mg single dose, median		total Cmax	3520 ng/mL
C=CC(=O)Nc1cc(Nc2nccc(-c3cn(C)c4ccccc34)n2)c(OC)cc1N(C)CCN(C)C	storage stability	human plasma	30 d, -80 °C, LQC level		recovery	95.6%
NS(=O)(=O)c1ccc(CNc2nc(Nc3cccc(CN4CCOCC4)c3)ncc2C2CC2)cc1	PAMPA	PBS	5 h, pH 7.4		effective permeability	0.709 ×10⁻⁶ cm/s
O=C(O)CCC(=O)O.[2H]C([2H])([2H])Oc1cc(C)c2[nH]ccc2c1CN1CC[C@@H](C2CC2)C[C@H]1c1ccc(C(=O)O)cc1	multiple ascending dose	healthy Chinese subjects	300 mg once daily		subjects with elevated triglycerides TEAE	12.5%
NC1(C(=O)N[C@@H](CCO)c2ccc(Cl)cc2)CCN(c2nc[nH]c3nccc2-3)CC1		metastatic CRPC patients	400 mg b.i.d., any grade, treatment-related, with: enzalutamide 160 mg daily		incidence of weight decreased	14.3%
CCc1cc(C(=O)NC)c2nccc(N3CCc4c(cc(Cn5ccnc5)cc4-c4cn(C)nc4C(F)(F)F)C3=O)c2c1		Sprague Dawley rat, male, bile duct-cannulated, plasma	oral, 50 mg/kg		t1/2	1.5 h
CC[C@H](C)CCCCC(=O)N[C@@H](CCN)C(=O)N[C@H](C(=O)N[C@@H](CCN)C(=O)N[C@H]1CCNC(=O)[C@H]([C@@H](C)O)NC(=O)[C@H](CCN)NC(=O)[C@H](CCN)NC(=O)[C@H](CC(C)C)NC(=O)[C@@H](Cc2ccccc2)NC(=O)[C@H](CCN)NC1=O)[C@@H](C)O		human, mild renal insufficiency, urine	intravenous, 0.75 mg/kg, 0-24 h, arithmetic mean		urinary excretion	1.53%
Cn1cncc1-c1c(F)cncc1NC(=O)c1c(N)nn2cc(F)cnc12	population PK model	patients with solid tumours, plasma	oral		Vc/F	30 L
C[Si](C)(C)O[Si](C)(C)C			concentration not given, temperature rise 30 °C		change in log KOW	0.35 log units
CCN1/C(=C/C(C)=O)Sc2ccc(F)cc21		cynomolgus monkey	oral, 30 mg/kg, 1 h post-dose		QRS duration	36 ± 1 ms
Cn1cc(Nc2nccc(-c3ccc4c(c3)CN(C3COC3)CC[C@H]4NC(=O)c3cn(C(C)(C)C)nn3)n2)cn1		human, whole blood	300 mg twice daily, day 14	baseline: pre-dose baseline	lymphocyte count change	3.95%
CNC(=O)c1cccc(-c2ccc(O[C@H]3O[C@H](CO)[C@@H](O)[C@H](O)[C@@H]3O)c(C)c2)c1		male Sprague-Dawley rat, plasma	intravenous, 3 mg/kg, group mean		Vss	1.33 L/kg
OC[C@H]1O[C@@H](c2ccc(Cl)c(Cc3ccc(O[C@H]4CCOC4)cc3)c2)[C@H](O)[C@@H](O)[C@@H]1O		Japanese type 1 diabetes patients, blood	2.5 mg, day 28	baseline: baseline	change in HDL cholesterol	3.31 mg/dL
COc1ccc2c(=O)n(C)c(-c3ccccc3)nc2c1		Sprague-Dawley rat, male, small intestine	oral, 30 mg/kg, 4 h		concentration	1120 ng/mL
Cc1nc2cccc(OCC(C)(C)C(=O)NC(C)C)c2c(N)c1C(=O)O		male Swiss albino CD-1 mouse, bone marrow	oral, 1000 mg/kg, 48 h		micronucleated polychromatic erythrocytes	0.05%
O=C(O)CC(O)(CC(=O)O)C(=O)O		Wistar rat	175 and 1000 mg/kg, weeks 2 and 4		body weight	decreased
Cl.[2H]C([2H])([2H])CC(=O)c1cnc(NC(=O)C2CC2)cc1Nc1cccc(-c2ncn(C([2H])([2H])[2H])n2)c1OC		human, fed, plasma	oral, 25 mg, single dose, liquid formulation		Vz/F	156 L
COc1ccc2[nH]c([S+]([O-])Cc3ncc(C)c(OC)c3C)nc2c1 (stereo not shown)		healthy Chinese volunteers, plasma	oral, 20 mg, enteric-coated capsules, CYP2C19 normal metabolizers		AUC(0-inf)	510 ± 536 ng·h/mL
O=C1Nc2ccc(Cl)cc2[C@@](C#CC2CC2)(C(F)(F)F)O1		human, plasma	oral, 600 mg, day 28, mean		trough plasma concentration	2690 ng/mL
O=C(Nc1nc2cccc(-c3ccc(CN4CCS(=O)(=O)CC4)cc3)n2n1)C1CC1	measured: pain in extremity	human rheumatoid arthritis patients	oral, 200 mg once daily, 4 weeks, regardless of relatedness		treatment-emergent adverse events	0%
Cc1ccc([C@@H]2O[C@H](CO)[C@@H](O)[C@H](O)[C@H]2O)cc1Cc1ccc(-c2ccc(F)cc2)s1		Japanese type 2 diabetes patients	100 mg, day 5, 24 h urine collection	baseline: baseline	urinary sodium excretion change	30.6 mEq

Some of these lines once more:
SMILES	assay	test system	conditions	how to read	endpoint	value
Cc1cc(Nc2ccc(S(F)(F)(F)(F)F)cc2)n2nc(C(C)(F)F)nc2n1		Plasmodium vivax malaria patients	oral, 800 mg		adverse event Pyrexia	57.1%
COc1cccc(OC)c1-c1cc(C(=O)NC2(C(=O)O)C3CC4CC(C3)CC2C4)nn1-c1ccc(C(=O)N(C)CCCN(C)CCCN(C)C(=O)CN2CCN(CC(=O)[O-])CCN(CC(=O)[O-])CCN(CC(=O)[O-])CC2)cc1C(C)C.[177Lu+3] (stereo not shown)		mouse, HT-29 xenograft, liver	4 h post injection		tissue uptake	2.7 %ID/g
CC1=C(/C=C/C(C)=C/C=C/C(C)=C\C(=O)O)C(C)(C)CCC1		FaSSIF	literature solubility over dose		dose-adjusted solubility	0.000638 mL⁻¹
Cc1cc(Nc2ncnc3ccc(NC4=NC(C)(CO)CO4)cc23)ccc1Oc1ccn2ncnc2c1 (stereo not shown)		human, plasma	oral, 300 mg tucatinib single dose, day 1, tucatinib alone		AUC(0-inf) (arithmetic mean)	485 ng·h/mL
